Published values of several laboratories.
Parts stem from different laboratories: compare values within a part only. Substitutions count along the parent as printed.

Series 1
Target: Sox, HMG box (Pigoraptor chileana)
Method: Spec-seq
Molecule type: double-stranded DNA, one strand shown
Matrix: in vitro
Tested at: not given
Notes: whole probe, mean of replicates
Relative to: not given
Direction: lower = stronger binding
All sequences stand within: GAGTCGTCTCGTCAGCAC … CCGTAGAGCACTCAGGTC
Target sequence (chain): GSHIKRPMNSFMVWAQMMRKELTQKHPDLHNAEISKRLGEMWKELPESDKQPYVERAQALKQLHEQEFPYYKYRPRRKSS
Strand | relative binding energy [ln ratio]
AGGAGTT | 0.773
CATACTG | -0.141
TGCAGTT | 0.223
TAATGTT | -0.299
CATGGAG | 0.526
CCCCGTT | 0.772
CATTGTC | -2.48
CCAAGTT | 0.368
CATGCAT | 0.64
GGAAGTT | 1.05
TATGGTT | -0.581
CATTCTT | -1.77
CATACGT | 0.254
TCCGGTT | 0.95
CATTTCG | 0.748
CATGGCG | 0.527
CATCATG | 0.116
CATTCCT | 0.78
TCCCGTT | 0.426
CGCTGTT | -0.612
CATAGGA | -0.314
CATTTTT | 0.339
CATGCGT | 0.693
CTGAGTT | 0.94
CATTGTG | -2.32

Series 2
Target: CRIPT, C-terminal peptide
Method: DHFR complementation, deep sequencing
Matrix: yeast
Notes: single substitutions, model-inferred values
Relative to: wild type
Direction: higher = weaker binding
Starting sequence: ERBIN, PDZ domain 1 (human); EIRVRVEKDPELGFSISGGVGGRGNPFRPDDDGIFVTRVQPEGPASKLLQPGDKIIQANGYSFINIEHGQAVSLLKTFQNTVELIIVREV; partner TKNYKQTSV
Variant | binding free energy change
E67D | 0.109 kcal/mol
R28L | 0.1 kcal/mol
V39G | 0.687 kcal/mol
K8P | 0.525 kcal/mol
V39P | 0.433 kcal/mol
R28K | -0.0359 kcal/mol
L48C | 0.163 kcal/mol
P41A | 0.172 kcal/mol
Q50W | -0.0186 kcal/mol
E67S | -0.061 kcal/mol
S46T | 0.11 kcal/mol

Series 3
Target: Fragile X messenger ribonucleoprotein 1, C-terminal low-complexity region (Fmr1, Mus musculus, UniProt P35922)
Method: RNA Bind-n-Seq
Molecule type: RNA
Matrix: in vitro
Tested at: 200 nM
Notes: whole 134-nt RNA, ends assumed
Together with: 150 mM LiCl
Relative to: input library
Direction: higher = stronger binding
Each molecule: 7-deaza-guanosine replaces G
All sequences stand within: GGGAGUUCUACAGUCCGACGAUC … UGGAAUUCUCGGGUGUCAAGG
Strand | log2 enrichment
GUCCUGUGCUACACAUCGUAUGUACCGAAUCGGGAAAAAAGGAAAAAAGGAAAAAAGGAAAGUAUUAUGUUACGCCGUUCGGAUCUGCAC | -0.396
UUGCGCCUGUCCCGGGUGAAGUGUGUCGGCCUCUCCGCACGCACCACGGAGACCAGCAGUGCAGUCAUGUGCCUGGACCUUGCAGCUUCC | 0.338
CAAGUCCUGUGCUACACAUCGUAUGUACCGAAUCGGUUUUUUUGGAAAAAGGUGGAAAGUAUUAUGUUACGCCGUUCGGAUCUGCACUUC | -1.7
CUGUGCUACACAUCGUAUGUACCGAAUCGGGGAAAAAAAGGGAAAAAAAGGAAAAAAAGGGAAAGUAUUAUGUUACGCCGUUCGGAUCUG | 0.192
AAGUCCUGUGCUACACAUCGUAUGUACCGAAUCGGAAAAAAAGGAAAGGAAAAAGGAAAGUAUUAUGUUACGCCGUUCGGAUCUGCACUU | -1.41
UGGCCCUGGUGGCAUGCGGGGAGGAAGAGGUGGCCUCAUGGAUCGUGGUGGUCCCGGUGGAAUGUUCAGAGCUGGCCGUGGUGGAGACAG | -1.5
GUCCUGUGCUACACAUCGUAUGUACCGAAUCGGGUUUUUGGGUUUUUGGGUUUUUGGGAAAGUAUUAUGUUACGCCGUUCGGAUCUGCAC | -0.913
AGUCCUGUGCUACACAUCGUAUGUACCGAAUCGGGUUUUUUUGGGUGGGAAAAAGGGAAAGUAUUAUGUUACGCCGUUCGGAUCUGCACU | -1.73
AAGUCCUGUGCUACACAUCGUAUGUACCGAAUCAAAUUUAAAUUUAAAUUUUUAAAAAAGUAUUAUGUUACGCCGUUCGGAUCUGCACUU | -3.29
UGUGGAGGAGACGGCCGACUCGACGCUGUGCCACAUCCUGAACCUGUACCGGCGGGCCACCUGGCUGCACCAGGCGCUGCGGGAGGGCAC | -0.213
ACCAUGCAGGUGGGCAUCUUUGGGAAGUGGGGCAAGGGGGGGAUAGGGAGGGGGGUAACCCUUUGGGAACAGGUGGUCCCAGGUCGUUUC | 0.866

Series 4
Target: CCNA2, cyclin fold, Cln2 fusion (human)
Method: yeast growth competition, sequencing
Matrix: yeast
Notes: weak parent motif
Relative to: not given
Direction: higher = stronger binding
Starting sequence: LLGL2 docking peptide (human); KSLKKSLRQSFRR
Variant | normalised enrichment score
R8A | 1.31
R12A | 1.53
L3A | 0.746
K4A | 1.73
L7A | 0.863
S6A | 0.689
S10A | 1.03

Series 5
Target: Interferon regulatory factor 5, full length, phosphomimetic (IRF5, Homo sapiens, UniProt Q13568-2, residues 1-514, S451D/S453D/S456D/S462D)
Method: protein-binding microarray
Molecule type: double-stranded DNA, one strand shown
Matrix: in vitro
Tested at: 940 nM top
Notes: 60-bp whole probe
Together with: salmon DNA 0.4 mg/ml
Relative to: random background probes
Direction: higher = stronger binding
All sequences stand within: GCCTAGCAC … GTCTTGATTCGCTTGACGCTGCTG
Strand | fitted relative affinity
GTCGGTCTCCTTATCCTGACGTGCTAG | 1.38 z-score
GACCAACTGAGTCTCGAGACGTGCTAG | 0.996 z-score
TAACTTTCCAATTGTCCTTTCGTGCTA | 1.26 z-score
CTTTGCTCATTTTTCAGGGAGTGCTAG | 0.641 z-score
GACGGTGTCGGACTGGGGACGTGCTAG | -0.144 z-score
GACGAACTGGGCACTGGAGACGTGCTA | -0.673 z-score
TTAGATTTCAGTATCGATTTGTGCTAG | 5.32 z-score
GACGATCTAAGACTGGAGACGTGCTAG | -0.529 z-score
TTACAGCTATTTTTAGGATGGTGCTAG | -0.243 z-score
CTGGTCCTCCTGACTGGGGTGGTGCTA | -0.204 z-score
GAAGGTTTCCTTTTCCTGACGTGCTAG | 1.6 z-score
TTACGTTTCGACTATCGGTTAGTGCTA | 5.62 z-score
TTAGGAATCGACTATCGGTTAGTGCTA | 0.509 z-score
TTAGGTTTCGGCATCGGTTAGTGCTAG | 9.57 z-score
TTAGGTATTCTTTTCCTTTAGTGCTAG | 0.465 z-score
GTTTCTCTTTCCTTCTTGATGTGCTAG | 4.58 z-score
TTAGAACTGAGATTGGATTAGTGCTAG | -0.31 z-score
TTAGATTTCGGGACTGCATTAGTGCTA | 0.808 z-score
GACGGTTTCGCGTATCGGGACGTGCTA | 4.6 z-score
TTAGATCTCAGTTTCGATAAGTGCTAG | 7.06 z-score
TCATTACTAAAATTTCATACTGTGCTA | 0.73 z-score
GACGAACTGAGTCTCGAGAAGTGCTAG | 0.549 z-score
TCACTTTGCTCATTTTTCACTGTGCTA | 1.27 z-score
GACGGACGGGGTTTCGGGACGTGCTAG | 2.77 z-score
TTAGCTATCGACTTTCGGTTAGTGCTA | 2.97 z-score

Series 6
Target: ABI1, truncated, D143A, DHFR fusion (Arabidopsis thaliana)
Method: DHFR PCA, deep sequencing
Matrix: yeast
Notes: methotrexate growth selection, single substitutions
Together with: (+)-ABA 710 µM
Relative to: wild-type fitted maximum
Direction: higher = stronger binding
Starting sequence: PYL1, truncated, DHFR fusion (Arabidopsis thaliana); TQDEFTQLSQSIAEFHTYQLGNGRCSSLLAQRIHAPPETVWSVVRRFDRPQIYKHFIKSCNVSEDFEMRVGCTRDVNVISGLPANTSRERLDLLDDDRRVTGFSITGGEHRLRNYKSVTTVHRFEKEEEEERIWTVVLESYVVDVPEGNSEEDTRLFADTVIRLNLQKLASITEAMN
Variant | relative binding score [%]
L94V | 92.2
S26H | 103
L166I | 64.2
Q2E | 105
T106M | 104
N85V | 108
F124R | 91.5
D75Y | 100
D159C | 69.7
I52K | 97.9
P37Q | 89.1
Q51P | 33.4
P50K | -13.8
Q167N | 96.3
V136N | 50.7
T73R | 95.1
T6W | 106
E4G | 95.8
G71K | 71.1
I33Q | 7.75
G148Y | 83
A170H | 64.2
P36Y | 96.4
H55L | 103
G23E | 94.4

Series 7
Target: Sal-like protein 4, full length isoform A (SALL4, Homo sapiens, UniProt Q9UJQ4, residues 1-1053)
Chain of UniProt Q9UJQ4 (whole entry, looked up): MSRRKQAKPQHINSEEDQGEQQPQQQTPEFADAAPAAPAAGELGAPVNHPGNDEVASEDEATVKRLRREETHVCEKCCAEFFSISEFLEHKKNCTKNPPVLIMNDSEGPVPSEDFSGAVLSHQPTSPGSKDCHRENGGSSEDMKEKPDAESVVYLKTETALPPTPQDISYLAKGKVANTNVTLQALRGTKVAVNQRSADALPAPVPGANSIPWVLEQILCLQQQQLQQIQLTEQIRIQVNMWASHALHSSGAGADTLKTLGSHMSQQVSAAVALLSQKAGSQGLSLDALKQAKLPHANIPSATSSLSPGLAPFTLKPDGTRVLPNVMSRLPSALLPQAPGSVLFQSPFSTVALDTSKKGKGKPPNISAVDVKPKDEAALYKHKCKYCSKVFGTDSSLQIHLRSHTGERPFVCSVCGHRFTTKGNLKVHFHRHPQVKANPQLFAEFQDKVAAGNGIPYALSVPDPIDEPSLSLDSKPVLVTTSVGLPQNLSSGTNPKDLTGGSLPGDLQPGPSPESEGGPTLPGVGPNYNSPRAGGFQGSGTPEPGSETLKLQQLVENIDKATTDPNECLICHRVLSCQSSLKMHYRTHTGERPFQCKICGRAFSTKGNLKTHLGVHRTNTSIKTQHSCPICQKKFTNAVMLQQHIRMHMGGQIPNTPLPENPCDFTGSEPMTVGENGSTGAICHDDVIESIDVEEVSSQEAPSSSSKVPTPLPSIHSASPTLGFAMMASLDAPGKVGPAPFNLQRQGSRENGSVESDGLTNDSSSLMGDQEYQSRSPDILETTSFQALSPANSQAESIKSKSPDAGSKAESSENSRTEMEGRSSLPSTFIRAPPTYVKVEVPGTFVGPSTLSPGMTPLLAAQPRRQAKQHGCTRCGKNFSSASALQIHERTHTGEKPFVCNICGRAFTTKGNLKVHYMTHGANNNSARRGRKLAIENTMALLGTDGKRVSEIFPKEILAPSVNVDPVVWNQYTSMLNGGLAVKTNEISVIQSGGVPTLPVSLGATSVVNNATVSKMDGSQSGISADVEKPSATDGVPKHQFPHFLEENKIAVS
Method: universal PBM
Molecule type: double-stranded DNA, one strand shown
Matrix: in vitro
Tested at: 600 nM
Notes: 8-mer, flanks averaged, mean of replicates
Direction: higher = stronger binding
Strand | E-score
ATACTCCG | -0.0148
CGCATTGC | -0.077
GTCAACGA | 0.00793
AAGCTAGA | 0.1
GACAAATC | 0.135
CGGGGTTC | -0.266
CACTGCAC | -0.141
AACACGCG | -0.129
CGCACCGA | -0.28
GAAGAAAC | -0.0527
ACGGTCGC | -0.247
AGGGCCGA | -0.176
ACGAGTAG | 0.0374
CTCATTCA | 0.11
CAACACTG | 0.0926
CGGCTATC | -0.174
ATCAGTGG | -0.052
TAACATCA | 0.257
GATTAATA | 0.397
CCGTTCAA | -0.03
CCGGTCGA | -0.419
AGATCCAC | 0.0667

Other studies, line by line
Molecule | target | assay | test system | conditions | scale | measurement | value
PhoQ, residues 284 288 289 292 302 303 SVTLVV | PhoP, residues 12 14 15 18 19 SQCLL (Escherichia coli, UniProt P23836) | Sort-seq, measured: YFP reporter | E. coli | PhoQ-PhoP variant library, together with: 10 µM Mg2+ | relative to: high Mg2+ state, higher = stronger signaling | fold induction | 15.3

Repeated from above (series 5):
Strand | fitted relative affinity
TCATTACTAAAATTTCATACTGTGCTA | 0.73 z-score
GTTTCTCTTTCCTTCTTGATGTGCTAG | 4.58 z-score
GACGGTTTCGCGTATCGGGACGTGCTA | 4.6 z-score
TTACGTTTCGACTATCGGTTAGTGCTA | 5.62 z-score
GACGAACTGGGCACTGGAGACGTGCTA | -0.673 z-score
GAAGGTTTCCTTTTCCTGACGTGCTAG | 1.6 z-score
GACGGACGGGGTTTCGGGACGTGCTAG | 2.77 z-score
GACCAACTGAGTCTCGAGACGTGCTAG | 0.996 z-score
GACGGTGTCGGACTGGGGACGTGCTAG | -0.144 z-score
GACGATCTAAGACTGGAGACGTGCTAG | -0.529 z-score
GTCGGTCTCCTTATCCTGACGTGCTAG | 1.38 z-score
TTAGGTATTCTTTTCCTTTAGTGCTAG | 0.465 z-score
TTAGAACTGAGATTGGATTAGTGCTAG | -0.31 z-score
